Assay results gathered from unrelated publications.
Lines come from different studies, so protocols differ. Several values in a cell are separate wells, animals, samples, runs or records. ± gives the spread as reported.
GBA2: Beta-glucosidase (GBA2, Homo sapiens, UniProt Q9HCG7)
Sequence of UniProt Q9HCG7 (whole entry, looked up): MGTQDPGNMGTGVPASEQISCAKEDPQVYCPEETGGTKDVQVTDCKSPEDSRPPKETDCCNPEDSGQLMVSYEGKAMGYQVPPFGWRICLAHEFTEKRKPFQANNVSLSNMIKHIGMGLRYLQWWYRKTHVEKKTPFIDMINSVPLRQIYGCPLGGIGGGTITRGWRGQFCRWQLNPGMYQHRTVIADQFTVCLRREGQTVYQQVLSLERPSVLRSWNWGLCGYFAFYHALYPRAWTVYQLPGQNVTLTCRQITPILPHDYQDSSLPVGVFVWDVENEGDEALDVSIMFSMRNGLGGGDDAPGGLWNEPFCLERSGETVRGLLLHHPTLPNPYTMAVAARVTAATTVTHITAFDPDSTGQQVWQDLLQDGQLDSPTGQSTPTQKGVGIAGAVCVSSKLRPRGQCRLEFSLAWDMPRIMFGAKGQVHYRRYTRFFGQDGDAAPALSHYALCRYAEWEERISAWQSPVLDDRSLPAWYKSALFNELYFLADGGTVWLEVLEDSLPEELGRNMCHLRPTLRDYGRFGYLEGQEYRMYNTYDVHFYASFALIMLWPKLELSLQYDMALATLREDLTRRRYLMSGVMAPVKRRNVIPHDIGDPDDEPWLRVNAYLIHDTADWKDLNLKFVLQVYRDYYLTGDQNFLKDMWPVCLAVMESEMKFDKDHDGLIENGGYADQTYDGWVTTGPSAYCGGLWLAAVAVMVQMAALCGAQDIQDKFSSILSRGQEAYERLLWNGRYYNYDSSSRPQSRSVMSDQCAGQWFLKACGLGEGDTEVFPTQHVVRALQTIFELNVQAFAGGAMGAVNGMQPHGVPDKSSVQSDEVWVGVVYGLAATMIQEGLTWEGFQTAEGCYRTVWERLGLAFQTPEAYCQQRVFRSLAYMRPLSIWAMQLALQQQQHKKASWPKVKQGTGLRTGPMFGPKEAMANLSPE
Sequence of UniProt O60674 (whole entry, unmodified, looked up): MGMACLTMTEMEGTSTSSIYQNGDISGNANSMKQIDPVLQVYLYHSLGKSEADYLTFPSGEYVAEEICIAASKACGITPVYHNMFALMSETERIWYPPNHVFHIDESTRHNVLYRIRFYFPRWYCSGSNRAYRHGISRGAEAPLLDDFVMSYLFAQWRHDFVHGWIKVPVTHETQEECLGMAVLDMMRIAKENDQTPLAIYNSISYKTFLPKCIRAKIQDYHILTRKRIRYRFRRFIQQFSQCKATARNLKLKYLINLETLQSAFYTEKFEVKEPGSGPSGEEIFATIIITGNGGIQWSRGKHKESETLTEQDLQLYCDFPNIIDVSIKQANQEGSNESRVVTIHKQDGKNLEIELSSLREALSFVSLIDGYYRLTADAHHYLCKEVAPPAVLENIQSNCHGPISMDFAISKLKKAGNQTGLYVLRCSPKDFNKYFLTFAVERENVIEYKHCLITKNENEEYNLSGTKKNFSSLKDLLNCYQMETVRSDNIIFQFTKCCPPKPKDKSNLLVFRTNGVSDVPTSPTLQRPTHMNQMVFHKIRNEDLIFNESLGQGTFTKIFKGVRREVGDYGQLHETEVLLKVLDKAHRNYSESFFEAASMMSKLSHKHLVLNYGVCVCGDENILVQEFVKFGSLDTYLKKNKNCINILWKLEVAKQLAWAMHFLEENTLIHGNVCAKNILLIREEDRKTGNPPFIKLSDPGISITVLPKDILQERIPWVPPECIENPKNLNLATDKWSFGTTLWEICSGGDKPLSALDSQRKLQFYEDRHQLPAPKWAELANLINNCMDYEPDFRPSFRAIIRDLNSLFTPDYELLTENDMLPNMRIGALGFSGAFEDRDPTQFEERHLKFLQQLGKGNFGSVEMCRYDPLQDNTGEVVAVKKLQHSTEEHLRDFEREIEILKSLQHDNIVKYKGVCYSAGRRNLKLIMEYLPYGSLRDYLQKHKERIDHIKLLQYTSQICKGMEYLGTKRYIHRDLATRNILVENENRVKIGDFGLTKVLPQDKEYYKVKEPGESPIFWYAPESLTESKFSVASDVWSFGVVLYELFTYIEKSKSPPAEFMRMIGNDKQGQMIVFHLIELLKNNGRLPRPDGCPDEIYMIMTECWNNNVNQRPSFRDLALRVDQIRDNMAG
Sequence of UniProt P10635 (whole entry, looked up): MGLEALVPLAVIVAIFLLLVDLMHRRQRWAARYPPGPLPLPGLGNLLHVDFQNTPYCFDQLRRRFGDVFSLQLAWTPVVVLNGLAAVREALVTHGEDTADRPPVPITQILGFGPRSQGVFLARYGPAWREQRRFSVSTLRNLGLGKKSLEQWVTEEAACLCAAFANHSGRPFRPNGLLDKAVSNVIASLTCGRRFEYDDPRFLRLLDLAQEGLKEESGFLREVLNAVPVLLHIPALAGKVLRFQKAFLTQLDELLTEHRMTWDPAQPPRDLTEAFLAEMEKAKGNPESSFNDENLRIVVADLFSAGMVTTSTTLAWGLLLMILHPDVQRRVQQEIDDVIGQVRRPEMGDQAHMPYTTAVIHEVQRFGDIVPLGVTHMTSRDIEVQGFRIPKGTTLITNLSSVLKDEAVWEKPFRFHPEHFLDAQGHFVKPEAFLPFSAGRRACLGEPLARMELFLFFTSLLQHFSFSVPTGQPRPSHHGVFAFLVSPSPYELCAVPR

N=C(N)NCCC[C@@H]1NC(=O)[C@H](CCCNC(=N)N)NC(=O)[C@@H](CCCNC(=N)N)NC(=O)[C@@H](CCCNC(=N)N)NC(=O)[C@@H](Cc2ccc3ccccc3c2)NC(=O)[C@H](Cc2c[nH]c3ccccc23)NC(=O)[C@@H](Cc2ccc3ccccc3c2)NC1=O  viability (HEKa; cell growth or viability, MTS; 200 µg/mL, 24 h): 47 to 50%
Cc1cc(Cl)cc(-c2ccnc3cc(CN4C(=O)C5C(C4=O)C5(C)C)sc23)c1C[C@@H]1CNCCO1 (stereo partly shown)  viability (CHP-212; SRB; 0.3125 µM, single replicate): 50.1% and 82.6% and 61.6%
CNC(=O)C1CCCN(C(=O)C2CC3CCC2N3C(=O)[C@@H]2C[C@@H](O)CN2C(=O)NCc2cccc(Cl)c2F)C1 (mixture of isomers)  IC50 (Cytochrome P450 2D6 (CYP2D6, Homo sapiens, UniProt P10635); enzyme activity, inhibitor; human, liver microsomes): > 50000 nM
C=CC(=O)Nc1cccc(Cn2ncc3cnc(Nc4cnn(CCOC)c4)nc32)c1  percent of control (GRK4 human; binding, KINOMEscan; 100 nM; lower = stronger binding): 11%
O=c1c2ccccc2n(CC2CC2)c(=O)n1O  Papp B→A (MDCK; Caco-2; 10 µM): 7.3 ×10⁻⁶ cm/s
O=CCNCCOn1c(=O)n(OCCNCCO)c(=O)n(OCCNCCOn2c(=O)n(OCCNCCO)c(=O)n(OCCNCCO)c2=O)c1=O  IC50 (HUVEC; cell growth or viability, MTT; 48 h): 7.6 µg/mL
CC[C@H](C)C(=O)O[C@H]1C[C@@H](C)C=C2C=C[C@H](C)[C@H](CC[C@@H]3CC=CC(=O)O3)[C@H]21  viability reduction (T84; MTT; 100 µM, 24 h): ~50%
CN1CCCNC(=O)c2cccc(c2)C(=O)NCCCN(C)CCCNc2cccc3c2C(=O)c2cccc(c2C3=O)NCCC1  viability (SAS; cell growth or viability, CCK-8; 0.15 µM, 48 h): 80.3%
C[C@@H]1O[C@@H](OC[C@H]2O[C@@H](Oc3c(-c4ccc(O)cc4)oc4cc(O)cc(O)c4c3=O)[C@H](O[C@@H]3O[C@@H](C)[C@H](O)[C@@H](O)[C@H]3O)[C@@H](O)[C@@H]2O)[C@H](O)[C@H](O)[C@H]1O  viability (3T3-L1 pre-adipocytes; MTT; 20 µM, 48 h): 77.4 ± 8.26%
CC(C)=CCC/C(C)=C/CC/C(C)=C/COCCCCCN1C[C@H](O)[C@@H](O)[C@H](O)[C@H]1CO  selectivity ratio (GBA2; inhibitor, 4MU-β-D-glucopyranoside; HEK293T homogenates overexpressing GBA2; reference: GBA1 IC50 over GBA2 IC50): 375
C=C(NC(=O)c1csc(-c2nc3c(cc2O)-c2nc(cs2)C(=O)NC(C(C)O)C(=O)NC(=C(C)OC)c2nc(cs2)C(=O)NC2c4nc(cs4)C(=O)NC(COC(=O)c4c5c6c(cccc6n4O)COC(=O)C(OC4CC(C)(O)C(N(C)C)C(C)O4)C2OC5)c2nc-3cs2)n1)C(N)=O (stereo not shown)  mRNA level (human hepatocytes; item: CYP1A2; concentration not given, 3 days; reference: negative control): < 4 fold
O=C1C2CC3CC1CC(C(=O)N1CCN(c4ccc([N+](=O)[O-])c5ncccc45)CC1)(C3)C2  revertant colony count (Escherichia coli; Ames test; WP2 uvrA pKM101; 0.02 µg/well, without S9 activation): 33 colonies/well
Nc1ncc(-c2cc(-c3cnn(CC(F)(F)F)c3)ncc2F)nc1C(=O)NC1CNCC(F)C1 (stereo not shown)  remaining binding (AKT3; KINOMEscan; 1 µM; reference: DMSO control): 93%
COc1ccc(Cn2c(=O)n(O)c(=O)c3ccccc32)cc1  Papp A→B (MDCK; Caco-2; 10 µM): 26.5 ×10⁻⁶ cm/s
N=C(N)NCCC[C@@H]1NC(=O)[C@H](CCCNC(=N)N)NC(=O)[C@@H](C(c2ccccc2)c2ccccc2)NC(=O)[C@H](Cc2c[nH]c3ccccc23)NC(=O)[C@@H](C(c2ccccc2)c2ccccc2)NC(=O)[C@@H](CCCNC(=N)N)NC(=O)[C@@H](CCCNC(=N)N)NC1=O  viability (HEKa; cell growth or viability, MTS; 200 µg/mL, 24 h): 64 to 69%
COc1cc(N2CCN(C(=O)C3CCCN3)CC2)ccc1Nc1ncc(Cl)c(Nc2ccccc2P(C)(C)=O)n1 (stereo not shown)  viability (NCI-H3122; cell growth or viability, CCK-8; 10 nM, 48 h): 77% and 64%
CN(CCC#N)c1nc(NCC[C@H]2CCCN2C)nc2sc(-c3ccccc3)cc12  Papp (RRCK (MDCK)): 3.1 ± 0.4 ×10⁻⁶ cm/s
N#Cc1ccc(Nc2nc(N)cc(Oc3c(F)cc(-c4cccc(C#N)c4)cc3F)n2)cc1  CC50 (MT4 uninfected): 7.58 ± 1.03 µM
CNS(=O)(=O)Nc1nccc(Cc2c(C)c3ccc(Oc4ncccc4F)cc3oc2=O)c1F  IC50 (NCI-H1819; cell viability; 7 days): > 1000 nM
COc1ccc(Cn2cc(CCO[C@@H]3O[C@H]4[C@H](OC[C@H]4O)[C@H]3O)nn2)cc1  viability (CAL-51; cytotoxicity, CellTiter-Glo; up to 30 µM, 72 h): not toxic
Cc1nn(-c2cccc(N)c2)c(=O)c2cnc(Nc3ccc(N4CCNCC4)cc3)nc12  IC50 (Tyrosine-protein kinase JAK2, JH1 (JAK2, Homo sapiens, UniProt O60674, V617F); enzyme activity, inhibitor): > 10000 nM
OB(O)c1ccc(C(F)(F)F)s1  CC50 (HFF-1; cell growth or viability, resazurin; 48 h): > 100 µM
Cc1cc(-c2ccc(C#N)cc2)cc(C)c1Oc1ccnc(Nc2ccc(C#N)cc2)n1  CC50 (MT4 uninfected): 2.08 ± 0.72 µM
COC1CN([C@H]2CC[C@H]([C@@]3(C)Oc4c(Cl)cc(C(=O)NCc5c(SC)cc(C)[nH]c5=O)c(C)c4O3)CC2)C1  log2 fold change (RNA-seq, item: CACHD1 mouse homolog; mouse, HT-1376 xenograft, whole blood; dose not given; reference: vehicle): 3.43
Cc1ncsc1-c1ccc(C(C)NC(=O)C2CC(O)CN2C(=O)C(NC(=O)CCCCCCCCCCN2CCCC(Nc3ncc(Cl)c(Nc4ccccc4S(=O)(=O)C(C)C)n3)C2)C(C)(C)C)cc1 (stereo not shown)  log2 fold change (22Rv1; RNA-seq, item: PKNOX2 mRNA; concentration not given; reference: DMSO): -2.05
OC[C@@H]1[C@@H](O)[C@H](O)[C@@H](O)CN1CCCCCOCc1ccc(-c2ccccc2)cc1F  IC50 (GBA2; inhibitor, 4MU-β-D-glucopyranoside; HEK293T homogenates overexpressing GBA2): 0.08 nM
COCCc1ccc(OCC(O)CNC(C)C)cc1 (stereo not shown)  efflux ratio (MDCK; Caco-2; 5 µM, 90 min, pH 7.4): 0.82
O=c1c2sccc2n(CC2COc3ccccc3O2)c(=O)n1O (stereo not shown)  Papp B→A (MDCK; Caco-2; 10 µM): 12.2 ×10⁻⁶ cm/s
OCCn1nc(-c2ccccc2)c2c(Cl)c(-c3ccccc3)nnc21  Papp (A to B) (MDCK (wild-type); 10 µM, 1 h, pH 7.4): 28 ×10⁻⁶ cm/s
O=C1NC2(CC2)COc2ncc(F)cc2[C@H]2COCCN2c2ccn3ncc1c3n2  polyploid cells (CHL; chromosomal aberration test; 150 µg/mL, 4 h, with rat liver S9): 0%
O=S(=O)(NCc1ccncc1)c1ccc(C2CCCCC2)cc1  EC50 (human bone marrow cells; granulocyte-macrophage colony formation; 14 d): > 1000 nM

Some of these lines once more:
O=CCNCCOn1c(=O)n(OCCNCCO)c(=O)n(OCCNCCOn2c(=O)n(OCCNCCO)c(=O)n(OCCNCCO)c2=O)c1=O  IC50 (HUVEC; cell growth or viability, MTT; 48 h): 7.6 µg/mL
CC[C@H](C)C(=O)O[C@H]1C[C@@H](C)C=C2C=C[C@H](C)[C@H](CC[C@@H]3CC=CC(=O)O3)[C@H]21  viability reduction (T84; MTT; 100 µM, 24 h): ~50%
CN1CCCNC(=O)c2cccc(c2)C(=O)NCCCN(C)CCCNc2cccc3c2C(=O)c2cccc(c2C3=O)NCCC1  viability (SAS; cell growth or viability, CCK-8; 0.15 µM, 48 h): 80.3%
C[C@@H]1O[C@@H](OC[C@H]2O[C@@H](Oc3c(-c4ccc(O)cc4)oc4cc(O)cc(O)c4c3=O)[C@H](O[C@@H]3O[C@@H](C)[C@H](O)[C@@H](O)[C@H]3O)[C@@H](O)[C@@H]2O)[C@H](O)[C@H](O)[C@H]1O  viability (3T3-L1 pre-adipocytes; MTT; 20 µM, 48 h): 77.4 ± 8.26%
